Literature values that unrelated publications cite.
Lines come from different studies, so protocols differ. Numbers after ± are the reported error.
UniProt Q96GD4, sequence (whole entry, looked up): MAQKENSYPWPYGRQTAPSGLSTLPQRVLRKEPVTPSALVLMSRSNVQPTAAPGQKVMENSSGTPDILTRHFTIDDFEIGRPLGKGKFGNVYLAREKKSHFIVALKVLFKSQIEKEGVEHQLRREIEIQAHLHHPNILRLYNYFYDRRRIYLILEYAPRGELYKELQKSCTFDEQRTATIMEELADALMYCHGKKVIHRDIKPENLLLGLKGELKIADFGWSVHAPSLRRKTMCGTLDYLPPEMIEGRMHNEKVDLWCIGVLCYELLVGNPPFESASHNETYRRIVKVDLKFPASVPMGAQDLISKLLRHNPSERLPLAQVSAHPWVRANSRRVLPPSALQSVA

SMILES | tested on | test | test system | setting | scale | measurement | value
CC(C)(O/N=C(\C(=O)N[C@@H]1C(=O)N2C(C(=O)[O-])=C(C[n+]3ccccc3)CS[C@H]12)c1csc(N)n1)C(=O)O | Escherichia coli |  | clinical isolate RKI-No_602/16 |  |  | MIC | ≤ 2 µg/mL
COc1cc(NC(=O)CCN2CCC(OC(=O)Nc3ccccc3-c3ccccc3)CC2)c(Cl)cc1CNC[C@H](O)c1ccc(O)c2[nH]c(=O)ccc12 |  |  | COPD patients | inhaled, 100 µg once daily, 24 h postdose, dosing day 1 | relative to: baseline | placebo-corrected trough FEV1 change | 96 mL
Nc1cccc2c1C(=O)N(C1CCC(=O)NC1=O)C2=O (centres unmarked) |  |  | relapsed refractory multiple myeloma patients | dose not given, historical, single agent |  | 6-month progression-free survival | 20%
COC(=O)C1=C(C)NC(C)=C(C(=O)OC)C1c1c(Cl)nc2sc(C)cn12 |  | calcium-induced contraction | guinea pig aortic strip | 50 µM, with: K+ 80 mM depolarisation |  | inhibition | 19 ± 1.3%
CCCCCCCN(CC)CCCC(O)c1ccc(NS(C)(=O)=O)cc1 (centres unmarked) |  |  | AF patients | dose not given |  | time to AF termination | 3 to 79 min
CN(C)C(=O)c1cc2cnc(Nc3ccc(N4CCNCC4)cn3)nc2n1C1CCCC1 |  |  | MCF7, mouse, MCF7 orthotopic xenograft | 75 mg/kg once daily, single agent |  | %T/C | 19%
Cc1cc(C)c(CNC(=O)c2cc(Cl)c3c(c2C)O[C@@](C)([C@H]2CC[C@H](N(C)C)CC2)O3)c(=O)[nH]1 |  |  | relapsed/refractory PTCL patients | 200 mg once daily |  | objective response rate | 44%
C=Cc1cnccn1 |  |  | human, water |  |  | odour detection threshold | 700 µg/kg
CN/C(=N\C#N)NCCCc1c[nH]cn1 |  | antinociception, hot plate test | rat | intracerebroventricular, 5 min |  | ED50 | 221 nmol
COC[C@@H](c1ccc(C(F)(F)F)cc1)N1CCN(C2(C)CCN(C(=O)c3c(C)ncnc3C)CC2)C[C@@H]1C |  |  | human, treatment-experienced HIV infected | associated with favourable outcome |  | target trough concentration | > 100 ng/mL
Nc1cc(C(F)(F)F)c(-c2nc(N3CCOCC3)nc(N3CCOCC3)n2)cn1 | Aurora kinase B (AURKB, Homo sapiens, UniProt Q96GD4) | enzyme activity |  | 10 µM | relative to: untreated | remaining activity | 81%
CCNCCc1ccc(CN(CC)c2cc(OC)ccc2[C@@H]2CCc3cc(O)ccc3C2)cc1 |  | local investigator assessed | human, ER-positive HER2-negative breast cancer | dose not given |  | median progression-free survival | 2.17 months
Cc1ccc(Nc2nccc(N(C)c3ccc4c(C)n(C)nc4c3)n2)cc1S(N)(=O)=O |  |  | paediatric sarcoma patients | dose not given |  | patients with stable disease | 52.6%
COc1ccc(Cl)c(Nc2nc3ccccc3nc2NS(=O)(=O)c2cccc(NC(=O)C(C)(C)N)c2)c1 |  |  | human endometrial cancer patients | dose not given, phase II trial, CR+PR+SD over 6 months |  | clinical benefit rate | 13.4%
N#Cc1ccc(C(c2ccc(C#N)cc2)n2cncn2)cc1 |  |  | rat C6 glioma model | dose not given, daily dosing |  | survival time | 60 days
NC(=S)NN=Cc1ncccc1N |  |  | cervical cancer patients | dose not given, randomized phase II, with: IV cisplatin plus radiation |  | complete metabolic response | 92%
CCc1cc2c(cc1CC)CC(NC[C@H](O)c1ccc(O)c3[nH]c(=O)ccc13)C2 |  |  | COPD patients | inhaled, 150 µg once daily, 24 h postdose, dosing day 1 | relative to: baseline | placebo-corrected trough FEV1 change | 110 mL
CNC(C)C1CCC(N)C(OC2C(N)CC(N)C(OC3OCC(C)(O)C(NC)C3O)C2O)O1 (centres unmarked) | Acinetobacter baumannii |  | clinical isolate RKI-No_596/16 |  |  | MIC | > 8 µg/mL
CC(C)c1cc(Oc2c(Cl)cc(-n3nc(C#N)c(=O)[nH]c3=O)cc2Cl)n[nH]c1=O |  |  | human, MASH patients | dose not given | relative to: patients | MASH resolution | ~30%
C[C@@]12C[C@@]3(O)O[C@@H](O1)[C@]1(COC(=O)c4ccccc4)[C@H]3C[C@@]12O[C@@H]1O[C@H](CO)[C@@H](O)[C@H](O)[C@H]1O |  | antithrombotic effect | rat thrombosis model | intravenous |  | effective dose | 10 mg/kg
CC1(C)CCC(CN2CCN(c3ccc(C(=O)NS(=O)(=O)c4ccc(NCC5CCOCC5)c([N+](=O)[O-])c4)c(Oc4cnc5[nH]ccc5c4)c3)CC2)=C(c2ccc(Cl)cc2)C1 |  |  | human, newly diagnosed AML | concentration not given, with: decitabine |  | complete remission rate | 54%
COc1ccccc1[C@H](Cn1c(=O)n(C(C)(C)C(=O)O)c(=O)c2c(C)c(-c3ncco3)sc21)OC1CCOCC1 |  | hepatic de novo lipogenesis, inhibitor | rat |  |  | ED50 | 0.18 mg/kg
Cc1ccc(Nc2nccc(N(C)c3ccc4c(C)n(C)nc4c3)n2)cc1S(N)(=O)=O |  |  | human epithelioid sarcoma patients | dose not given |  | median duration of response | < 2 months

Repeated from above:
SMILES | tested on | test | test system | setting | scale | measurement | value
CNC(C)C1CCC(N)C(OC2C(N)CC(N)C(OC3OCC(C)(O)C(NC)C3O)C2O)O1 (centres unmarked) | Acinetobacter baumannii |  | clinical isolate RKI-No_596/16 |  |  | MIC | > 8 µg/mL
